Assay results pooled from the literature.
Every numbered part comes from another study and shows a few of its results, in no order.

Study 1 — technique: protein binding microarray; molecule type: double-stranded DNA, one strand shown; medium: in vitro; tested at: not given; baseline: not given; reading: higher = stronger binding
Target: Histone acetyltransferase KAT6A, both winged helices, GST fusion (KAT6A, Homo sapiens, UniProt Q92794, residues 1-181)
Setting: 8-mer, flanks averaged, mean of 2 arrays, mostly near background
Construct (chain): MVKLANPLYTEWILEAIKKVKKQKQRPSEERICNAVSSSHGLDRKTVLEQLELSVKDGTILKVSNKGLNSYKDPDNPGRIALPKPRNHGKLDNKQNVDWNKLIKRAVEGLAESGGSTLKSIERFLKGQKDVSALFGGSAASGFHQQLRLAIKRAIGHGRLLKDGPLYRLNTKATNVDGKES
| Oligonucleotide | E-score |
| --- | --- |
| GCTCCGGA | 0.119 |
| ACCACGCT | 0.0096 |
| CCTACGAA | -0.122 |
| CAGCTCTC | -0.26 |
| CCTACAAG | -0.183 |
| GGTTCTAC | -0.0249 |
| TCGCGAAA | 0.262 |

Study 2 — technique: aptamer microarray, sandwich; molecule type: DNA with 2'F-ANA; medium: in vitro; tested at: 200 nM; with: Cy3 exosite-II aptamer, 400 nM; reading: higher = stronger binding; oligonucleotide: GGTTGGTGTGGTTGG
Target: Prothrombin, mature alpha-thrombin (F2, Homo sapiens, UniProt P00734)
Setting: whole 15-mer aptamer, many near background
| Modification | mean fluorescence intensity |
| --- | --- |
| 2'F-ANA at 2 5 7 9 10 12 13 14 15 | 52.3 a.u. |
| 2'F-ANA at 1 3 7 8 11 12 15 | 553 a.u. |
| 2'F-ANA at 1 5 6 7 8 13 14 | 51.5 a.u. |
| 2'F-ANA at 2 5 8 9 | 91.3 a.u. |
| 2'F-ANA at 1 2 6 10 11 | 90 a.u. |
| 2'F-ANA at 1 3 4 5 6 10 13 14 15 | 56.6 a.u. |
| 2'F-ANA at 1 2 3 4 9 14 15 | 59.3 a.u. |
| 2'F-ANA at 1 3 5 7 10 | 47.6 a.u. |

Study 3 — technique: protein-binding microarray; molecule type: double-stranded DNA, one strand shown; medium: in vitro; tested at: not given; reading: higher = stronger binding
Target: Protein max, full length (MAX, Homo sapiens, UniProt P61244-2, residues 1-151)
Setting: k-mer, scored over probes, only values ≥0.25
| Oligonucleotide | E-score |
| --- | --- |
| AAACGTGA | 0.385 |
| CGCATGTA | 0.395 |
| CCCACGGG | 0.348 |
| GGTGGCGA | 0.279 |
| ACACAGCA | 0.265 |
| ACCCCATG | 0.383 |
| CATGGCTC | 0.333 |
| CACATTGA | 0.262 |
| ACGTGCAG | 0.446 |

Other studies, line by line
| Substance | target | assay | system | setting | scale | measurement | value |
| --- | --- | --- | --- | --- | --- | --- | --- |
| PhoQ, residues 284 288 289 292 302 303 ASSHFY | PhoP, residues 12 14 15 18 19 NHFIF (Escherichia coli, UniProt P23836) | Sort-seq, measured: YFP reporter | E. coli | PhoQ-PhoP variant library, with: 10 µM Mg2+ | baseline: high Mg2+ state, higher = stronger signaling | fold induction | 15.8 |
